Published values of several laboratories.
Every numbered part comes from another study and shows a few of its results, in no order. Substitutions count along the parent as printed.

Set 1 — method: RNAcompete; form: RNA; matrix: in vitro; concentration: 20 nM; setting: 7-mer, probes averaged, single round; reference: mean of 7-mers; reading: higher = stronger binding
Target: PABPC1L2, full length, GST fusion (mouse, UniProt A0ABA7IW68)
Target sequence (chain): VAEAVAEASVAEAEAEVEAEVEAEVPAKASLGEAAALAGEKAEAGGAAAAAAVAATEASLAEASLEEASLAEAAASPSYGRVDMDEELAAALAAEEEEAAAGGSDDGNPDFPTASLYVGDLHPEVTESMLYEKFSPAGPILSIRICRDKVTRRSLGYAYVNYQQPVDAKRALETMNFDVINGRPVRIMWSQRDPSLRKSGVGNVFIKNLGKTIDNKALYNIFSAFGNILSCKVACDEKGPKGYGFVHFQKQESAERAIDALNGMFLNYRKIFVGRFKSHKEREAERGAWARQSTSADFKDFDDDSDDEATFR
Sequence	7-mer Z-score
AGGGCGA	0.481
CCGUUUC	-0.507
UGUAGGU	-0.113
CGACCAG	-0.0355
AGAAUUC	-0.206
CAGGAUA	0.0569
UAGGCGA	0.213

Set 2 — target: CCND2, cyclin fold, Cln2 fusion (human); method: yeast growth competition, sequencing; matrix: yeast; setting: strong parent motif; reference: not given; reading: higher = stronger binding
Parent: INSM1 docking peptide (human); PKAIRKLHFEDEV
Substitution	normalised enrichment score
K2V	1.19
K6W	1.2
D11L	1.42
R5G	0.0585
A3M	0.453
L7C	0.481
H8T	4.08

Set 3 — method: protein-binding microarray; form: double-stranded DNA, one strand shown; matrix: in vitro; concentration: 250 nM; setting: 60-bp whole probe; together with: salmon DNA 0.4 mg/ml; reference: random background probes; reading: higher = stronger binding; constant ends, left off below: GCCTAGCAC … GTCTTGATTCGCTTGACGCTGCTG
Target: Interferon regulatory factor 5, full length, phosphomimetic (IRF5, Homo sapiens, UniProt Q13568-2, residues 1-514, K96S/S451D/S453D/S456D/S462D)
Sequence	log fluorescence [z-score]
TTACGTCTCCTTATCCTTTAGTGCTAG	0.88
TTAGGTTTCGTTTTCCTTTAGTGCTAG	8.23
GACGAAATGAGTTTCGAGACGTGCTAG	6.05
CATCCGTTTCTTCTAGACTTGTGCTAG	1.11
TTAGAACTGGGGTATCAATTAGTGCTA	0.337
GACGGACTGGACTACCGGGACGTGCTA	-0.656

Other studies, line by line
Substance	target	assay	test system	conditions	scale	endpoint	result
PhoQ, residues 284 288 289 292 302 303 NLCILV	PhoP, residues 12 14 15 18 19 NIMAP (Escherichia coli, UniProt P23836)	Sort-seq, item: YFP reporter	E. coli	PhoQ-PhoP variant library, together with: 10 µM Mg2+	reference: high Mg2+ state, higher = stronger signaling	fold induction	0.852
